Results from different studies.
Parts stem from different laboratories: compare values within a part only.
Chain of UniProt Q9UEE5 (whole entry, looked up): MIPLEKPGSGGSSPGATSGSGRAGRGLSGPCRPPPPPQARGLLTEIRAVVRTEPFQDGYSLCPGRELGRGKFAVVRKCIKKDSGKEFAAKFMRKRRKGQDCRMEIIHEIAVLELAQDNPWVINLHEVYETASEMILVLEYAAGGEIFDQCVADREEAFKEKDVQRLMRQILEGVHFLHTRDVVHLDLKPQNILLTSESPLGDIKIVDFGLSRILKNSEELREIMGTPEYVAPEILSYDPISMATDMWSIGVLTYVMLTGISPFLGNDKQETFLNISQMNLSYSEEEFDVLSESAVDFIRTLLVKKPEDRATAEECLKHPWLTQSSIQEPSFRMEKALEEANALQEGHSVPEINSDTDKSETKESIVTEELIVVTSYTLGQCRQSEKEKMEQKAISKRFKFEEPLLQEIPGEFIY

Series 1
Target: PABPC1L2, full length, GST fusion (mouse, UniProt A0ABA7IW68)
Technique: RNAcompete
Molecule type: RNA
Medium: in vitro
Tested at: 20 nM
Setting: 7-mer, probes averaged, single round
Baseline: mean of 7-mers
Direction: higher = stronger binding
Residues (chain): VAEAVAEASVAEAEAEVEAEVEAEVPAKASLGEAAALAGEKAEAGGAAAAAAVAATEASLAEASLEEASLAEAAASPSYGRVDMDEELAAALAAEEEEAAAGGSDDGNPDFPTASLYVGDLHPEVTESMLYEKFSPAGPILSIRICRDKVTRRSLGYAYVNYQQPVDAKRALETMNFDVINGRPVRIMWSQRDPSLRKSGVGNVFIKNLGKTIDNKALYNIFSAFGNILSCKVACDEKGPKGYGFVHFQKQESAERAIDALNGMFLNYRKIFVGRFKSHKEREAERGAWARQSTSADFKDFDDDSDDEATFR
| Oligonucleotide | 7-mer Z-score |
| --- | --- |
| UCGCUCA | -0.269 |
| AAAGUUC | 0.939 |
| GCGGAGA | 0.363 |
| GGGCAUC | 0.407 |
| AGCCAAG | -0.0826 |
| CCGCCGU | -0.456 |
| AUAUCCA | -0.115 |
| AUUGAGC | -0.186 |

Series 2
Target: Cyclic AMP-responsive element-binding protein 1, full length (CREB1, Homo sapiens, UniProt P16220, residues 1-327)
Chain of UniProt P16220 (whole entry, looked up): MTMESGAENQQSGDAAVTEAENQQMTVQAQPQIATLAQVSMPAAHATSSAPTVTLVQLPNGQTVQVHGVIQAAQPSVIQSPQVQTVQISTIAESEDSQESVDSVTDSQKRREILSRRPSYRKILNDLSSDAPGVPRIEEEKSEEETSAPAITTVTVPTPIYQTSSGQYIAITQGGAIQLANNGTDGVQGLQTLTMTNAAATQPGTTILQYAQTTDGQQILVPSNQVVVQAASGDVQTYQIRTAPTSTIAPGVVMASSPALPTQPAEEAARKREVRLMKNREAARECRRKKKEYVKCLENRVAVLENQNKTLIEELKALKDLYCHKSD
Technique: protein-binding microarray
Molecule type: hairpin DNA
Medium: in vitro
Tested at: not given
Setting: whole hairpin DNA, median over replicate spots
Baseline: not given
Direction: higher = stronger binding
Shared flanks, not repeated: GAGGCCG … CGGCCTCACACTC
| Oligonucleotide | median fluorescence |
| --- | --- |
| AAGACGTCGTGCCTCCTGGCACGACGTCTT (5mC at 15 29 35) | 3280 a.u. |
| GACGACGTCAGCCTCCTGGCTGACGTCGTC (5mC at 10) | 9660 a.u. |
| GATGACGGCAGCCTCCTGGCTGCCGTCATC | 4420 a.u. |
| GCTGAGGTCAGCCTCCTGGCTGACCTCAGC | 2800 a.u. |
| GATGACGTCAGCCTCCTGGCTGACGTCATC (5mC at 34) | 7150 a.u. |
| GATGACGCGAGCCTCCTGGCTCGCGTCATC (5mC at 15 29) | 12200 a.u. |
| ACGAAGTCGTGCCTCCTGGCACGACTTCGT (5mC at 9 15 29 35) | 2470 a.u. |
| GCTGACGTCTGCCTCCTGGCAGACGTCAGC | 4670 a.u. |

Further values, each from its own experiment
| SMILES | target | assay | setting | scale | endpoint | result |
| --- | --- | --- | --- | --- | --- | --- |
| C[C@@H](c1cccc(C#N)c1)n1cc(Cl)cc(C(N)=O)c1=N | cAMP-dependent protein kinase catalytic subunit beta (PRKACB, Homo sapiens, UniProt P22694) | cell-free assay, competition with immobilised ligand | 1 µM |  | remaining binding | 100% |
| Cc1cn(-c2cc(NC(=O)c3ccc(C)c(Nc4nccc(-c5cccnc5)n4)c3)cc(C(F)(F)F)c2)cn1 | Serine/threonine-protein kinase 17A (STK17A, Homo sapiens, UniProt Q9UEE5) | enzyme activity, inhibitor | 0.5 µM | baseline: control | remaining activity | 98.9% |

For quick reference, copied from above (series 2):
| Oligonucleotide | median fluorescence |
| --- | --- |
| GCTGAGGTCAGCCTCCTGGCTGACCTCAGC | 2800 a.u. |
| GATGACGTCAGCCTCCTGGCTGACGTCATC (5mC at 34) | 7150 a.u. |
